Results of several laboratories.
Parts stem from different laboratories: compare values within a part only.

Sample 1 — method: aptamer microarray, sandwich; molecule type: DNA with 2'F-ANA; sample: in vitro; concentration: 200 nM; with: Cy3 exosite-II aptamer, 400 nM; reading: higher = stronger binding; sequence: GGTTGGTGTGGTTGG
Target: Prothrombin, mature alpha-thrombin (F2, Homo sapiens, UniProt P00734)
Notes: whole 15-mer aptamer, many near background
Modification	mean fluorescence intensity [a.u.]
2'F-ANA at 1 2 4 7 8 10 12	58.8
2'F-ANA at 1 2 5 6 10 11 12 13 14	48.6
2'F-ANA at 3 4 8 9 10 11 13 15	233
2'F-ANA at 1 2 3 7 8 10 14	54.1
2'F-ANA at 1 2 3 5 6 9 10 11 13 15	49
2'F-ANA at 5 6 8 9 15	69
2'F-ANA at 2 3 4 5 6 8 9 11 12 14	50.1
2'F-ANA at 3 5 6 8 11 13 15	86.1

Sample 2 — method: RNA Bind-n-Seq; molecule type: RNA; sample: in vitro; concentration: 200 nM; notes: whole 134-nt RNA, ends assumed; with: 150 mM KCl; relative to: input library; reading: higher = stronger binding
Target: Fragile X messenger ribonucleoprotein 1, C-terminal low-complexity region (Fmr1, Mus musculus, UniProt P35922)
All sequences stand within: GGGAGUUCUACAGUCCGACGAUC … UGGAAUUCUCGGGUGUCAAGG
Sequence	log2 enrichment
UCAAGUCCUGUGCUACACAUCGUAUGUACCGAAUCGGGGAAAGGAAAGGAAAGGAAAGUAUUAUGUUACGCCGUUCGGAUCUGCACUUCC	-0.698
CCUGUGCUACACAUCGUAUGUACCGAAUCGGGAAAAAGGGUUUUUUUGGGUUUUUUUGGGAAAGUAUUAUGUUACGCCGUUCGGAUCUGC	-0.757
CAAGUCCUGUGCUACACAUCGUAUGUACCGAAUCGGUUUUUUUGGUUUGGUUUGGAAAGUAUUAUGUUACGCCGUUCGGAUCUGCACUUC	-0.761
GUCCUGUGCUACACAUCGUAUGUACCGAAUCGGGAAAAAAAGGGAGGGUUUUUUUGGGAAAGUAUUAUGUUACGCCGUUCGGAUCUGCAC	0.0609
AAGUCCUGUGCUACACAUCGUAUGUACCGAAUCGGGAAAAAGGGAAAAAGGGUGGGAAAGUAUUAUGUUACGCCGUUCGGAUCUGCACUU	0.665
GCCUGGCGCUGGCCAACAAUAGCACCCUCACCAUUGGCACCAUCGAUGAGAUCCAGAAGCUGCACAUUCGCACAGUUCCCCUCUAUGAGU	0.723

Sample 3 — method: RNA Bind-n-Seq; molecule type: RNA; sample: in vitro; concentration: 20 nM; notes: 6-mer, flanks averaged, single round; with: 150 mM KCl; relative to: input library; reading: higher = stronger binding
Target: TAR DNA-binding protein 43, full length, His tag (TARDBP, Homo sapiens, UniProt Q13148, residues 1-414)
Sequence	6-mer enrichment (R)
AUUCAC	0.563
AGGGUA	2.03
CCGCGU	0.796
UGACUA	0.625
UCCUAU	0.567
CGACGG	1.58
UCUAUG	0.623
UCACCU	0.582
UUAAGA	0.626

Mixed results
Molecule	target	assay	test system	conditions	how to read	endpoint	value
PhoQ, residues 284 288 289 292 302 303 SSYNSA	PhoP, residues 12 14 15 18 19 LFHKL (Escherichia coli, UniProt P23836)	Sort-seq, refers to: YFP reporter	E. coli	PhoQ-PhoP variant library, with: 10 µM Mg2+	relative to: high Mg2+ state, higher = stronger signaling	fold induction	4.49
